# Results gathered from unrelated publications.
# Protocols differ between the studies behind these lines. ± gives the spread as reported.
# UCHL1: Ubiquitin carboxyl-terminal hydrolase isozyme L1 (UCHL1, Homo sapiens, UniProt P09936)
# UniProt P09936, sequence (whole entry, looked up): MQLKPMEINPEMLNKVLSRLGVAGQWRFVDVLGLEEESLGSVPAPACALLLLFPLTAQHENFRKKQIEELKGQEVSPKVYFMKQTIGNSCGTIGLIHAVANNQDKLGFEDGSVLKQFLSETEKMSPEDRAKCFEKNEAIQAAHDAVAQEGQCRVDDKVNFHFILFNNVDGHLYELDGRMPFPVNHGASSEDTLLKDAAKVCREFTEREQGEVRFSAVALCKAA
Structure (SMILES),tested on,assay,conditions,how to read,quantity,value
CC(=O)OC[C@H]1O[C@@H]([S-])[C@H](OC(C)=O)[C@@H](OC(C)=O)[C@@H]1OC(C)=O.CCP(CC)CC.[Au+],HepG2,,72 h,relative to: HepG2 CC50 over EC50,selectivity index,4
COc1cc(C(=O)NS(=O)(=O)c2ccccc2C)ccc1Cc1cn(C)c2ccc(NC(=O)OC3CCCC3)cc12,HepG2,"cytotoxicity, resazurin",24 h,,highest non-cytotoxic concentration,> 128 µM
CCOC(=O)[C@@]12C[C@@H]1[C@@H](n1ccc3c(NC)nc(C#Cc4ccc(Cl)s4)nc31)[C@H](O)[C@@H]2O,HepG2,"cell viability, CellTiter-Glo","30 µM, 72 h, unit not given",relative to: puromycin 10 µM,maximum response,24
CCN1CCN(Cc2ccc(Nc3nc4ccc(Oc5ccnc(NC(C)=O)c5)c5c4n3CCC5)cc2C(F)(F)F)CC1,HepG2,cytotoxicity,48 h,,EC50,14.3 ± 0.7 µM
CC(C)c1ccc(NC(=O)CCc2nc(O)c3c4c(sc3n2)CCC4)cc1,HepG2,"cytotoxicity, CellTiter-Glo",3 days,,IC50,> 56 µM
CCn1c(-c2nonc2N)nc2cncc(C(=O)N3CC[C@H](N)C3)c21,HepG2,cytotoxicity,PKIS HTS,,pTC50,< 4
[131I-].[Na+],HepG2,,"7 µCi/well, 24 h",,cellular uptake,0.91 ± 0.04%
COc1ccc(Nc2cnnc3cc(-c4cnc(N5CCN(C)CC5)nc4)ccc23)cc1Cl,HepG2,cytotoxicity,,,TC50,> 2.2 µM
CCN1CCN(Cc2ccc(Nc3nc4nc(Oc5ccnc(NC(C)=O)c5)ncc4[nH]3)cc2C(F)(F)F)CC1,HepG2,cytotoxicity,48 h,,EC50,> 20 µM
O=c1c(O)c(-c2ccc(O)cc2)oc2cc(O)cc(O)c12,HepG2,"viability, CellTiter-Glo",,,highest non-cytotoxic concentration,> 200 µM
N#CC(=Cc1ccc(O)c(O)c1)C(=O)Nc1cccc(Cl)c1Cl,UCHL1,"covalent, intact protein LC-MS",12.5 µM,,labelling,10%
COc1ccc(Nc2cnnc3cc(-c4cnc(N5CCCN(C)CC5)nc4)ccc23)cc1Cl,HepG2,cytotoxicity,,,TC50,> 2.1 µM
CN(c1ccccc1C(=O)Nc1ccc(S(=O)(=O)N2CCN(c3cc(C(F)(F)F)cc(Cl)n3)CC2)cc1)S(C)(=O)=O,HepG2,,"100 µM, 24 h",,viability,no effect
O=C1C(O)=C([C@H]2CC[C@H](c3ccc(Cl)cc3)CC2)C(=O)c2ccccc21,HepG2,,72 h,relative to: HepG2 CC50 over EC50,selectivity index,62
CN1CCC(c2cc(-c3ccncc3)c(-c3ccc(F)cc3)[nH]2)CC1,HepG2,MTS,"20 µM, 48 h",,viability,60%
CN(C)CCOc1ccc(-c2nc(-c3ccncc3)c(-c3ccc4c(c3)CC/C4=N\O)[nH]2)cc1,HepG2,cytotoxicity,PKIS HTS,,pTC50,6.1
CN1CCN(c2ccc(-c3ccc4nncc(Nc5ccc(OC(F)(F)F)cc5)c4c3)cc2)CC1,HepG2,cytotoxicity,,,TC50,18 µM
O=C(Nc1ccncc1)c1cc([N+](=O)[O-])ccc1Cl,HepG2,,72 h,relative to: HepG2 CC50 over EC50,selectivity index,24
CC1CC(O)(C#CC(C)(C)OC(=O)c2ccccc2)C(C)CN1C (stereo not drawn),UCHL1,"covalent, intact protein LC-MS",12.5 µM,,labelling,31.5%
NCC(=O)CCC(=O)O,HepG2,ATPlite,"18 to 24 h, together with: deferoxamine",,CC50,> 1000 µM
CN(C)c1ccc2cc(C(=O)NS(=O)(=O)c3ccccc3-c3ccccc3)oc2c1,HepG2,,concentration not given,,mitochondrial toxicity,negative
CCN1CCN(Cc2ccc(Nc3nc4ccc(Oc5ccnc(NC(=O)C6CCN(C)CC6)c5)cc4n3C)cc2C(F)(F)F)CC1,HepG2,cytotoxicity,48 h,,EC50,4.8 ± 0.7 µM
CCN(CC)c1ccc(CNc2nn[nH]n2)cc1,HepG2,"cytotoxicity, CellTiter-Glo",3 days,,IC50,> 56 µM
CC(=O)Nc1ccc(O)cc1,HepG2,ATPlite,"18 to 24 h, together with: deferoxamine",,CC50,> 1000 µM
CC(C)CCNC(=O)c1csc(-c2cccc(Cl)c2Cl)n1,HepG2,"cytotoxicity, CellTiter-Glo",3 days,,IC50,> 56 µM
CC(=O)Nc1cc(Oc2ccc3c(c2)nc(Nc2ccc(F)cc2F)n3C)ccn1,HepG2,cytotoxicity,48 h,,EC50,0.9 ± 0.3 µM
O=c1c(O)c(-c2ccc(O)c(O)c2)oc2cc(O)cc(O)c12,HepG2,"viability, CellTiter-Glo",,,highest non-cytotoxic concentration,> 200 µM
CCN1CCN(Cc2ccc(Nc3nc4ccc(Oc5ccnc(NC(=O)CCN(C)C)c5)cc4n3C)cc2C(F)(F)F)CC1,HepG2,cytotoxicity,48 h,,EC50,4.7 ± 0.6 µM
O=C(Cc1ccc(F)cc1)N1CCN(c2nc3c(Cl)cccc3s2)CC1,HepG2,"cytotoxicity, CellTiter-Glo",3 days,,IC50,> 56 µM
COc1ccc(Nc2cnnc3cc(-c4ccc(S(=O)(=O)N5CCN(C)CC5)cc4)ccc23)nc1,HepG2,cytotoxicity,,,TC50,> 20 µM
O=C(O)/C=C/c1ccccc1,HepG2,MTT,"3.1 to 50 µg/mL, 48 h, 10% FBS",,viability,> 90%
CC(=O)Nc1cc(Oc2ccc3nc(Nc4ccc(F)cc4F)n(C)c3n2)ccn1,HepG2,cytotoxicity,48 h,,EC50,> 20 µM
COC(=O)N[C@H](C(=O)N1CC2(CC2)C[C@H]1c1ncc(-c2ccc3c(c2)C(F)(F)c2cc(-c4ccc5nc([C@@H]6[C@H]7CC[C@H](C7)N6C(=O)[C@@H](NC(=O)OC)C(C)C)[nH]c5c4)ccc2-3)[nH]1)C(C)C,HepG2,Alamar Blue,48 h,,TC50,> 25 µM

# Some of these lines once more:
Structure (SMILES),tested on,assay,conditions,how to read,quantity,value
O=C1C(O)=C([C@H]2CC[C@H](c3ccc(Cl)cc3)CC2)C(=O)c2ccccc21,HepG2,,72 h,relative to: HepG2 CC50 over EC50,selectivity index,62
O=C(O)/C=C/c1ccccc1,HepG2,MTT,"3.1 to 50 µg/mL, 48 h, 10% FBS",,viability,> 90%
